Published values pooled from the literature.
Lines come from different studies, so protocols differ. ± gives the spread as reported.

`CCCCCCN1C(=O)C(O)=C(C(=O)c2ccc(C)cc2)C1c1ccc(OC)cc1OC` (stereo not drawn) gave an IC50 of 6.2 ± 2.1 µM (CXCR1/2 (human); calcium flux, antagonist; human neutrophils; with: IL-8 25 nM).
`O=C(/C=C/c1ccc(Cn2cc(Cn3cnc4ccc(Br)cc4c3=O)nn2)cc1)NO` has an IC50 of 0.635 µM (HDAC; enzyme activity, inhibitor, fluorogenic; HeLa nuclear extract; 30 min, 37 °C).
`O=C(NO)c1ccc(CN2c3ccccc3Oc3cc(C(=O)Nc4ccccc4)ccc32)cc1` gave an IC50 of 0.24 ± 0.04 µM (HeLa nuclear HDACs; enzyme activity, inhibitor; with: Boc-Lys(Ac)-AMC).
For `Cc1cccc(C)c1NC(=O)C1CCCN(Cc2ccccc2)C1` (stereo not drawn), the IC50 was 12.5 ± 0.8 µM (Nav1.4, Pelophylax lessonae; sodium current, use-dependent blocker, vaseline gap voltage clamp; skeletal muscle fibres; 2 Hz pulse trains).
With `O=C(/C=C/c1ccc(Cn2cc(Cn3cnc4ccc(I)cc4c3=O)nn2)cc1)NO` the IC50 was 1.03 µM (HDAC; enzyme activity, inhibitor, fluorogenic; HeLa nuclear extract; 30 min, 37 °C).
With `N=C(N)c1ccc(OCCCCCOc2ccc(C(=N)N)cc2)cc1` the IC50 was greater than 1000 µM (r(CUG)12 RNA-MBNL1 complex; MBNL1 displacement from r(CUG)12 RNA, inhibitor, qTR-FRET).
The IC50 of `O=C(/C=C/c1ccc(Cn2cc(Cn3cnc4cc(F)ccc4c3=O)nn2)cc1)NO` is reported as 0.464 µM (HDAC; enzyme activity, inhibitor, fluorogenic; HeLa nuclear extract; 30 min, 37 °C).
`CC(C)N1C(=O)N(c2ccccc2)CS/C1=N\C(C)(C)C` gave an IC50 of 0.0018 µg/mL (mouse monoclonal antibody 19F2; antibody binding, indirect competitive ELISA; pH 5.5).
With `O=C(NO)c1ccc(Cn2cc(Cn3cnc4cc(Br)ccc4c3=O)nn2)cc1` the IC50 was 0.142 µM (HDAC; enzyme activity, inhibitor, fluorogenic; HeLa nuclear extract; 30 min, 37 °C).
The IC50 of `COc1cccc(/C=C/c2ccc(O)cc2)c1` is reported as 19.5 µg/mL (NF-κB (human); reporter gene, inhibitor; SW1353; with: PMA).
With `O=C(NO)c1ccc(Cn2cc(Cn3cnc4cc(F)ccc4c3=O)nn2)cc1` the IC50 was 0.513 µM (HDAC; enzyme activity, inhibitor, fluorogenic; HeLa nuclear extract; 30 min, 37 °C).
With `COc1cc(/C=C/c2ccc(O)cc2)cc(OC)c1` the IC50 was greater than 25 µg/mL (NF-κB (human); reporter gene, inhibitor; SW1353; with: PMA).
`NC(=O)c1ccc2c(c1)Oc1ccccc1N2Cc1ccc(C(=O)NO)cc1` has an IC50 of 0.2 ± 0.01 µM (HeLa nuclear HDACs; enzyme activity, inhibitor; with: Boc-Lys(Ac)-AMC).
`Oc1cccc(/C=C/c2ccccc2)c1` has an IC50 of greater than 25 µg/mL (NF-κB (human); reporter gene, inhibitor; SW1353; with: PMA).
The IC50 of `OCCNCCO` is reported as 2500 µM (neuronal nicotinic acetylcholine receptor rat; ACh-evoked current, antagonist, whole-cell voltage clamp; rat intracardiac neurons; holding -90 mV, with: ACh 100 µM).
`Cc1ccc(S(=O)(=O)N[C@@H](CCCCN)C(=O)CCl)cc1` gave an IC50 of 0.8 ± 0.2 µM (E3 Blattella germanica protease; covalent inhibitor; 1 h preincubation, with: QAR-AMC).
For `CO[C@@H]1O[C@@H]2COC(C)(C(=O)O)O[C@@H]2[C@H](O)[C@H]1O` (single isomer, unassigned), the IC50 was 0.2 µM (human IgM WEA; precipitation, inhibitor, quantitative precipitin inhibition; with: agar).
With `COc1ccc([C@@]23Oc4cc(OC)cc(OC)c4[C@]2(O)[C@H](O)[C@H](C(=O)N(C)C)[C@H]3c2ccccc2)cc1` the IC50 was roughly 0.05 µM (HSF1, human; heat shock reporter (HSE-driven GFP), inhibitor, dual reporter cell; with: MG132).
`O=C(NO)c1ccc(CN2c3ccccc3Oc3ccccc32)cc1` has an IC50 of 0.54 ± 0.05 µM (HeLa nuclear HDACs; enzyme activity, inhibitor; with: Boc-Lys(Ac)-AMC).
`CC(C)(O)C(O)Cc1c(O)cc(/C=C/c2ccccc2)cc1O` (stereo not drawn) has an IC50 of greater than 25 µg/mL (NF-κB (human); reporter gene, inhibitor; SW1353; with: PMA).
For `Cc1cccc(C)c1NC(=O)C1CCN(Cc2ccccc2)C1` (racemic), the IC50 was 2.2 ± 0.1 µM (Nav1.4, Pelophylax lessonae; sodium current, use-dependent blocker, vaseline gap voltage clamp; skeletal muscle fibres; 10 Hz pulse trains).
`CC(C)/C=C/c1c(O)cc(/C=C/c2ccccc2)cc1O` gave an IC50 of greater than 25 µg/mL (NF-κB (human); reporter gene, inhibitor; SW1353; with: PMA).
`Cc1cccc(C)c1NC(=O)C1CCCCN1Cc1ccccc1` (stereo not drawn) has an IC50 of 36 ± 5.2 µM (Nav1.4, Pelophylax lessonae; sodium current, use-dependent blocker, vaseline gap voltage clamp; skeletal muscle fibres; 10 Hz pulse trains).
The IC50 of `O=C(NO)c1ccc(Cn2cc(Cn3cnc4ccc(Br)cc4c3=O)nn2)cc1` is reported as 0.188 µM (HDAC; enzyme activity, inhibitor, fluorogenic; HeLa nuclear extract; 30 min, 37 °C).
`O=C(NO)c1ccc(CN2c3ccccc3Oc3cc(-c4ccccc4)ccc32)cc1` gave an IC50 of 5.71 ± 2.41 µM (HeLa nuclear HDACs; enzyme activity, inhibitor; with: Boc-Lys(Ac)-AMC).
`CC(C)(O)C(O)C(=O)Nc1cccc(C(=O)N2CCC(c3cccc(CN)c3)CC2)c1` (stereo not drawn) gave an IC50 of 31.5 µM (tryptase, human; enzyme activity, inhibitor; HMC1; 2 h, with: A23187 1 µM).
`Cc1cccc(C)c1NC(=O)C1CN(Cc2ccccc2)CCN1` (stereo not drawn) gave an IC50 of 8.9 ± 1.3 µM (Nav1.4, Pelophylax lessonae; sodium current, use-dependent blocker, vaseline gap voltage clamp; skeletal muscle fibres; 2 Hz pulse trains).
The IC50 of `Oc1cccc(CCc2ccccc2)c1` is reported as greater than 25 µg/mL (NF-κB (human); reporter gene, inhibitor; SW1353; with: PMA).
`NCc1cccc(C2CCN(C(=O)c3cccc(OCC(=O)C4(O)CCC4)c3)CC2)c1` has an IC50 of 0.433 µM (tryptase, human; enzyme activity, inhibitor; HMC1; 2 h, with: A23187 1 µM).
`Cc1cccc(C)c1NC(=O)C1CCCN1Cc1ccccc1` (racemic) gave an IC50 of 49.7 ± 7.6 µM (Nav1.4, Pelophylax lessonae; sodium current, use-dependent blocker, vaseline gap voltage clamp; skeletal muscle fibres; 2 Hz pulse trains).
The IC50 of `Oc1ccc(/C=C/c2cc(O)cc(O)c2)cc1` is reported as 8.8 ± 1.18 µM (human ornithine decarboxylase; enzyme activity, inhibitor; T24; with: TPA).
`Cc1c(C)c(NC(=O)C2CCN(Cc3ccccc3)C2)c(C)c(C)c1Cl` (stereo not drawn) gave an IC50 of 11.1 ± 1.3 µM (Nav1.4, Pelophylax lessonae; sodium current, use-dependent blocker, vaseline gap voltage clamp; skeletal muscle fibres; 10 Hz pulse trains).
For `CC(C)/C=C/c1c(O)cc(/C=C/c2ccc(O)c(O)c2)cc1O`, the IC50 was 12 µg/mL (NF-κB (human); reporter gene, inhibitor; SW1353; with: PMA).
For `Cc1ccc2c(=O)n(Cc3cn(Cc4ccc(C(=O)NO)cc4)nn3)cnc2c1`, the IC50 was 0.146 µM (HDAC; enzyme activity, inhibitor, fluorogenic; HeLa nuclear extract; 30 min, 37 °C).
`O=C(Nc1ccccc1)C1CCN(Cc2ccccc2)C1` (stereo not drawn) gave an IC50 of 8.4 ± 0.4 µM (Nav1.4, Pelophylax lessonae; sodium current, use-dependent blocker, vaseline gap voltage clamp; skeletal muscle fibres; 10 Hz pulse trains).
`NCc1cccc(C2CCN(C(=O)c3cccc(OCC(O)C4(O)CCC4)c3)CC2)c1` (stereo not drawn) gave an IC50 of 10.8 µM (tryptase, human; enzyme activity, inhibitor; HMC1; 2 h, with: A23187 1 µM).
With `O=C(/C=C/c1ccc(Cn2cc(Cn3cnc4ccc(Cl)cc4c3=O)nn2)cc1)NO` the IC50 was 0.234 µM (HDAC; enzyme activity, inhibitor, fluorogenic; HeLa nuclear extract; 30 min, 37 °C).
`CC(C)=CCc1c(O)cc(/C=C/c2ccccc2)cc1O` gave an IC50 of greater than 25 µg/mL (NF-κB (human); reporter gene, inhibitor; SW1353; with: PMA).
With `O=C(Nc1ccc(Cl)cc1)C1CCN(Cc2ccccc2)C1` (stereo not drawn) the IC50 was 11.9 ± 1 µM (Nav1.4, Pelophylax lessonae; sodium current, use-dependent blocker, vaseline gap voltage clamp; skeletal muscle fibres; 10 Hz pulse trains).
